Published values collected from several papers.
Every numbered part comes from another study and shows a few of its results, in no order.

Series 1
Target: Interferon regulatory factor 5, full length, phosphomimetic (IRF5, Homo sapiens, UniProt Q13568-2, residues 1-514, K96S/S451D/S453D/S456D/S462D)
Technique: protein-binding microarray
Form: double-stranded DNA, one strand shown
Matrix: in vitro
Tested at: 250 nM
Setting: 60-bp whole probe
Together with: salmon DNA 0.4 mg/ml
Reference: random background probes
Reading: higher = stronger binding
Shared flanks, not repeated: GCCTAGCAC … GTCTTGATTCGCTTGACGCTGCTG
The log fluorescence of `TTAGGTTCCGGTTTCGGTTCGTGCTAG` is reported as 9.03 z-score.
The log fluorescence of `GACGAACTGGGGTATCTAGACGTGCTA` is reported as -0.297 z-score.
The log fluorescence of `TTAGATTTCGGGTATCGATCAGTGCTA` is reported as 7.27 z-score.
For `TAGAATGTCCTTTCTCCATGGGTGCTA`, the log fluorescence was 0.681 z-score.
With `TCAGGTTTTTTTTTAATACTGTGCTAG` the log fluorescence was 0.48 z-score.
With `TTAGAGATCAGTCTCGATTAGTGCTAG` the log fluorescence was 0.954 z-score.
`TTAGAGCTGAGACTGGATTAGTGCTAG` gave a log fluorescence of -0.296 z-score.

Series 2
Target: RNA binding protein fox-1 homolog 2, RRM domain, GST-SBP tag (RBFOX2, Homo sapiens, UniProt O43251-10, residues 100-194)
Technique: RNA Bind-n-Seq
Form: RNA
Matrix: in vitro
Tested at: 365 nM
Setting: natural RNA segment, single round, ends assumed
Reference: no-protein control
Reading: higher = stronger binding
Shared flanks, not repeated: GGGAGUUCUACAGUCCGACGAUC … UGGAAUUCUCGGGUGCCAA
Residues (chain): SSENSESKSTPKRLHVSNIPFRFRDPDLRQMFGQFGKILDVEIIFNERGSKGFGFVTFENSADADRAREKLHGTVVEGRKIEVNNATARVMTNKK
For `CCUCUCUAGAGCCUUCCUCAGAGCUGUGCAAGCAUGGGAGCCUCUCCUUGCUCCUCCCAGUCCUGCACUGGCAUGAGUUCGGGUGUAGGAGGACAUGACUCCAAGGUGCU`, “RBNS enrichment (R)” read 1.
`CAGCCAAUAAGAUAAUAGCAGAAUUAGCCAAUCCUAAAACCUUCUAAAGACGAUUUUUGAGCAUCCCACUGGGAUUAUUUAAUUUUUCUUUUUGACGUGUGUUUUUAGUU`: “RBNS enrichment (R)” 1.05.
`CUCUCUUUGGGGCUUCUCCCUCCCGUUUCAGGGGAAAGGUCUGAGUCUCCACGUUUCAGACCAGCUUCUGGGGGAAGGCAGUCCGGCAGGGAGACCGGGAGGGGUGGCCA` — result for “RBNS enrichment (R)”: 0.361.
For `GCAGUUAAAUGGACCUAGAUUUUGUUUUGCACUAAAGUUUCUGUGACUUAAUAAAGUUCUGUUAACCAACAGAUCUGGCCUUGUGUCUCUUUGAUACCUCAGCCAGAAGA`, “RBNS enrichment (R)” read 0.313.
`AAAGUUACUAGUAAUGCUUUACUAAGUAGUGCAAUGAAUUUUUAUUUUUAAUCCCUGUGCCCAAUUUUGGAGUUGAGAGGGUUGUUGGUAAUAAAUGUAUGAUGUACACU`: “RBNS enrichment (R)” 0.476.
Under “RBNS enrichment (R)”, `GUGUCUUAAGGAGACUGGUAGGAGGAGGCAUGGAAACCAAAAGGCCGUGUGUUUAGAAGCCUAAUUGUCACAUCAAGCAUCAUUGUCCCCAUGCAACAACCACCACCUUA` is recorded as 0.581.

Series 3
Target: Prothrombin, mature alpha-thrombin (F2, Homo sapiens, UniProt P00734)
Technique: aptamer microarray, sandwich
Form: DNA with 2'F-ANA
Matrix: in vitro
Tested at: 200 nM
Setting: whole 15-mer aptamer, many near background
Together with: Cy3 exosite-II aptamer, 400 nM
Reading: higher = stronger binding
Oligonucleotide: GGTTGGTGTGGTTGG
For `2'F-ANA at 1 2 5 7 9 11 14 15`, “mean fluorescence intensity” read 44.6 a.u.
Under “mean fluorescence intensity”, `2'F-ANA at 3 5 6 7 11 12 14 15` is recorded as 65 a.u.
`2'F-ANA at 1 3 4 7 8 11 14`: “mean fluorescence intensity” 82 a.u.
`2'F-ANA at 1 2 9 11 12 14 15` — result for “mean fluorescence intensity”: 59.6 a.u.
Under “mean fluorescence intensity”, `2'F-ANA at 1 3 7 8 11 12 14` is recorded as 138 a.u.
`2'F-ANA at 2 3 5 9 10 12 13 15` — result for “mean fluorescence intensity”: 55.7 a.u.
Under “mean fluorescence intensity”, `2'F-ANA at 1 6 8 10 13 15` is recorded as 53.6 a.u.
`2'F-ANA at 1 2 3 6 8 9 13 14 15`: “mean fluorescence intensity” 75.3 a.u.
`2'F-ANA at 1 2 5 7 8 10 13 14`: “mean fluorescence intensity” 46.7 a.u.
For `2'F-ANA at 5 6 7 10 14 15`, “mean fluorescence intensity” read 44 a.u.

Further values, each from its own experiment
`PhoQ, residues 284 288 289 292 302 303 STVVAA` gave a fold induction of 0.763 (PhoP, residues 12 14 15 18 19 TPLRH (Escherichia coli, UniProt P23836); Sort-seq, refers to: YFP reporter; E. coli; PhoQ-PhoP variant library, together with: 10 µM Mg2+; reference: high Mg2+ state, higher = stronger signaling).

A few entries again (series 3):
`2'F-ANA at 1 2 5 7 8 10 13 14`: “mean fluorescence intensity” 46.7 a.u.
